{"data": "Published values collected from several papers", "note": "Each numbered part is a random draw from the data of one study; scales do not carry over between parts. Values joined by “and” are separate records of one study, mostly repeats; a detail may differ."}
{"data": "Study 1", "target": "Sal-like protein 4, full length isoform B (SALL4, Homo sapiens, UniProt Q9UJQ4-2, residues 1-616)", "technique": "universal PBM", "molecule type": "double-stranded DNA, one strand shown", "matrix": "in vitro", "concentration": "not given", "setting": "8-mer, flanks averaged, mean of replicates", "direction": "higher = stronger binding", "Construct (chain)": "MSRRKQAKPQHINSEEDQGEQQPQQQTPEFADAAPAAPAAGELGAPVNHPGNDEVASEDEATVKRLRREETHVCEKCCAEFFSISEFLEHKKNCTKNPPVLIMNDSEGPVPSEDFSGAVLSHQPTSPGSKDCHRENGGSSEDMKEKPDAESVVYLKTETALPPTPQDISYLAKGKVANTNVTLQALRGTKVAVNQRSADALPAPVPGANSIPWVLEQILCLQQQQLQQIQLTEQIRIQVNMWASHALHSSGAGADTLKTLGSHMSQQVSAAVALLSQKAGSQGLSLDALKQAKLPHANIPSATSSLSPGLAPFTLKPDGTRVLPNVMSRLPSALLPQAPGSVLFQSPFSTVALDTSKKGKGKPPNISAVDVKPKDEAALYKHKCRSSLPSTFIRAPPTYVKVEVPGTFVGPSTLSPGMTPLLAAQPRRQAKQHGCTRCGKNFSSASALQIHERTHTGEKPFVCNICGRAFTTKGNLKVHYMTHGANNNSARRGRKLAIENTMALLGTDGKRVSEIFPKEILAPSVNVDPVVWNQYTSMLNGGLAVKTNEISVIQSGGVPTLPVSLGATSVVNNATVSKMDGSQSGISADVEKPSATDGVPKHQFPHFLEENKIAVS"}
{"Strand": "GCGCTCTA", "E-score": -0.131}
{"Strand": "AAATTATG", "E-score": 0.405}
{"Strand": "GGATCTAC", "E-score": 0.0356}
{"Strand": "AAATTCCC", "E-score": 0.143}
{"Strand": "AACCAAAC", "E-score": -0.121}
{"Strand": "ATGGCTGA", "E-score": 0.0415}
{"Strand": "CCAAACGG", "E-score": -0.293}
{"Strand": "ATTCGGCG", "E-score": -0.141}
{"data": "Study 2", "organism": "SARS-CoV-2", "observed": "cytopathic effect", "cells": "Vero E6", "concentration": "10 µM"}
{"SMILES": "CCCOc1ccc(CSc2nnc[nH]2)cc1", "inhibition": "-3.7%"}
{"SMILES": "O=C(O)[C@@H](S)[C@@H](S)C(=O)O", "inhibition": "6.5% and 0.36%"}
{"SMILES": "O=c1c(O)c(-c2cc(O)c(O)c(O)c2)oc2cc(O)cc(O)c12", "inhibition": "-3.3%"}
{"data": "Study 3", "target": "Replicase polyprotein 1ab, nsp13 helicase (rep, Severe acute respiratory syndrome coronavirus 2, UniProt P0DTD1)", "mode": "inhibitor", "concentration": "20 µM"}
{"Structure (SMILES)": "CC(C)n1cnc2c(C(=O)N[C@H]3CN4CCC3CC4)cc(Cl)cc21", "inhibition": "2.95%"}
{"Structure (SMILES)": "Cc1nn(-c2ccccc2)c(C)c1/C=N/N1CCN(Cc2ccccc2)CC1", "inhibition": "4.41%"}
{"Structure (SMILES)": "Fc1ccc(-c2nc(-c3c(F)cccc3F)[nH]c2-c2ccncc2)cc1", "inhibition": "8.75%"}
{"Structure (SMILES)": "CO/N=C1\\C[C@]2(C[C@@H]3C[C@@H](C/C=C(\\C)C[C@@H](C)/C=C/C=C4\\CO[C@@H]5[C@H](O)C(C)=C[C@@H](C(=O)O3)[C@]45O)O2)O[C@H](/C(C)=C/C(C)C)[C@H]1C", "inhibition": "6.23%"}
{"Structure (SMILES)": "CCCCCCOC(=O)NC(=N)c1ccc(NCc2nc3cc(C(=O)N(CCC(=O)OCC)c4ccccn4)ccc3n2C)cc1", "inhibition": "7.35%"}
{"Structure (SMILES)": "NC(=O)CCCCC1CCSS1 (stereo not drawn)", "inhibition": "7.53%"}
{"Structure (SMILES)": "O=C(CCCN1CC=C(n2c(=O)[nH]c3ccccc32)CC1)c1ccc(F)cc1", "inhibition": "-30.7%"}
{"Structure (SMILES)": "COC(=O)Nc1nc2cc([S+]([O-])c3ccccc3)ccc2[nH]1 (stereo not drawn)", "inhibition": "0.09%"}
{"Structure (SMILES)": "C[C@]12CCC(=O)C=C1CC[C@@H]1[C@@H]2CC[C@@]2(C)[C@H]1CC[C@]2(C)O", "inhibition": "1.96%"}
{"Structure (SMILES)": "O=c1ccc2cc3ccoc3cc2o1", "inhibition": "-0.63%"}
{"Structure (SMILES)": "CC#CCn1c(N2CCC[C@@H](N)C2)nc2c1c(=O)n(Cc1nc(C)c3ccccc3n1)c(=O)n2C", "inhibition": "-0.01%"}
{"Structure (SMILES)": "NC(=O)c1ccc([N+](=O)[O-])cc1Cl", "inhibition": "7.06%"}
{"Structure (SMILES)": "O=S(=O)(O)CCCS(=O)(=O)O", "inhibition": "4.62%"}
{"Structure (SMILES)": "CCCCC1(COC(=O)CCC(=O)O)C(=O)N(c2ccccc2)N(c2ccccc2)C1=O", "inhibition": "0.75%"}
{"Structure (SMILES)": "C[C@@H](O)[C@H]1C(=O)N2C(C(=O)OCOC(=O)C(C)(C)C)=C(SC3CN(C4=NCCS4)C3)[C@H](C)[C@H]12", "inhibition": "-1.1%"}
{"Structure (SMILES)": "Cc1nc2c(OCc3ccccc3)cccn2c1CC#N", "inhibition": "0.44%"}
{"Structure (SMILES)": "O=C(O)c1ccc(Nc2ncc3c(n2)-c2ccc(Cl)cc2C(c2c(F)cccc2F)=NC3)cc1", "inhibition": "11.8%"}
{"data": "Study 4", "target": "Interferon regulatory factor 3, full length, phosphomimetic (IRF3, Homo sapiens, UniProt Q14653, residues 1-427, S386D/S396D/S398D/S402D/T404D/S405D)", "technique": "protein-binding microarray", "molecule type": "double-stranded DNA, one strand shown", "matrix": "in vitro", "concentration": "2540 nM top", "setting": "60-bp whole probe", "together with": "salmon DNA 0.4 mg/ml", "reference": "random background probes", "direction": "higher = stronger binding", "all sequences stand within": "GCCTAGCAC … GTCTTGATTCGCTTGACGCTGCTG", "Construct (chain)": "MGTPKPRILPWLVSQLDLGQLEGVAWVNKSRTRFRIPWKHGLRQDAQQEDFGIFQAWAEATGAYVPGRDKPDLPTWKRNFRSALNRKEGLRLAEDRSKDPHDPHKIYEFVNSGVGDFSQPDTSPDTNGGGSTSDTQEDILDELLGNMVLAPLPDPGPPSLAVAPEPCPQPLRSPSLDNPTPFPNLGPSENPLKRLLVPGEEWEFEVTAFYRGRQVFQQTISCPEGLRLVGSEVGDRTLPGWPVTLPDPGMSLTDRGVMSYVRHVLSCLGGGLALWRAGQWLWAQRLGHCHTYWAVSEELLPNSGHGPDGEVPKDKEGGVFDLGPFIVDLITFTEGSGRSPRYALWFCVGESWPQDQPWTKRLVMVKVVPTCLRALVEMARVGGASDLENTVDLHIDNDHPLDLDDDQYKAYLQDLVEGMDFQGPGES"}
{"Strand": "TCATGCTTCAGGTTTACCACTGTGCTA", "fitted relative affinity": "-0.324 z-score"}
{"Strand": "GACTATATCAGTATCGAGACGTGCTAG", "fitted relative affinity": "1.12 z-score"}
{"Strand": "TCATTTCTTTGCTTCACACTGTGCTAG", "fitted relative affinity": "1.96 z-score"}
{"Strand": "GGCGGTATCGGGTTTCGGGACGTGCTA", "fitted relative affinity": "3.09 z-score"}
{"Strand": "TTGCGTCTGGGTGTTTTCTAGTGCTAG", "fitted relative affinity": "-0.653 z-score"}
{"Strand": "GACGGTTTCGTGTTTCGGGACGTGCTA", "fitted relative affinity": "4.25 z-score"}
{"Strand": "GATTTTTTAGCTTGCAAAAAGTGCTAG", "fitted relative affinity": "0.357 z-score"}
{"Strand": "TGTAATGATGTAGGCAAATGGTGCTAG", "fitted relative affinity": "-0.476 z-score"}
{"note": "Excerpt of the above (study 2):"}
{"SMILES": "O=c1c(O)c(-c2cc(O)c(O)c(O)c2)oc2cc(O)cc(O)c12", "inhibition": "-3.3%"}
{"SMILES": "O=C(O)[C@@H](S)[C@@H](S)C(=O)O", "inhibition": "6.5% and 0.36%"}
{"SMILES": "CCCOc1ccc(CSc2nnc[nH]2)cc1", "inhibition": "-3.7%"}
